Measured values from different studies.
Each numbered part is a random draw from the data of one study; scales do not carry over between parts. Several values in a cell are separate wells, animals, samples, runs or records.
UniProt P11362, sequence (whole entry, looked up): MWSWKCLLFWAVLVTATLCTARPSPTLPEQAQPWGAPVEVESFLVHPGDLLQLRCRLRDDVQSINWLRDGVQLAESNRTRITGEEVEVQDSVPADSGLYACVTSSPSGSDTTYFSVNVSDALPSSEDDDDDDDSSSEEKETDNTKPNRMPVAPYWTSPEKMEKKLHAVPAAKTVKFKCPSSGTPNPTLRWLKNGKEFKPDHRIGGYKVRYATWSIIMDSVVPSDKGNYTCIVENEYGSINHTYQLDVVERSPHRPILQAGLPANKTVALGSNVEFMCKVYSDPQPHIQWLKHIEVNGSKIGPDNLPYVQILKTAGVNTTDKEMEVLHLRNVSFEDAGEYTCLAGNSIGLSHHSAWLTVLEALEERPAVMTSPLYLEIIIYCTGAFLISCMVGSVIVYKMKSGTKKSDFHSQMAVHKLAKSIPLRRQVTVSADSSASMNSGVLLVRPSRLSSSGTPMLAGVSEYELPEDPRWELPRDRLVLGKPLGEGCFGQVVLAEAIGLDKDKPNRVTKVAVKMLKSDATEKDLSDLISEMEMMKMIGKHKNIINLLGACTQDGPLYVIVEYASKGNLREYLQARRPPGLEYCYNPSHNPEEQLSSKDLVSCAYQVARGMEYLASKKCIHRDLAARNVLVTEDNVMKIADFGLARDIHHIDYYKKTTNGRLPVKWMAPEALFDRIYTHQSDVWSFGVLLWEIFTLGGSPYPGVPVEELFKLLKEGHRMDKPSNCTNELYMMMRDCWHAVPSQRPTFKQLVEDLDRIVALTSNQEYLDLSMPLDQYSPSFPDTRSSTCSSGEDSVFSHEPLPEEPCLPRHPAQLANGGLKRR
UniProt Q99558, sequence (whole entry, looked up): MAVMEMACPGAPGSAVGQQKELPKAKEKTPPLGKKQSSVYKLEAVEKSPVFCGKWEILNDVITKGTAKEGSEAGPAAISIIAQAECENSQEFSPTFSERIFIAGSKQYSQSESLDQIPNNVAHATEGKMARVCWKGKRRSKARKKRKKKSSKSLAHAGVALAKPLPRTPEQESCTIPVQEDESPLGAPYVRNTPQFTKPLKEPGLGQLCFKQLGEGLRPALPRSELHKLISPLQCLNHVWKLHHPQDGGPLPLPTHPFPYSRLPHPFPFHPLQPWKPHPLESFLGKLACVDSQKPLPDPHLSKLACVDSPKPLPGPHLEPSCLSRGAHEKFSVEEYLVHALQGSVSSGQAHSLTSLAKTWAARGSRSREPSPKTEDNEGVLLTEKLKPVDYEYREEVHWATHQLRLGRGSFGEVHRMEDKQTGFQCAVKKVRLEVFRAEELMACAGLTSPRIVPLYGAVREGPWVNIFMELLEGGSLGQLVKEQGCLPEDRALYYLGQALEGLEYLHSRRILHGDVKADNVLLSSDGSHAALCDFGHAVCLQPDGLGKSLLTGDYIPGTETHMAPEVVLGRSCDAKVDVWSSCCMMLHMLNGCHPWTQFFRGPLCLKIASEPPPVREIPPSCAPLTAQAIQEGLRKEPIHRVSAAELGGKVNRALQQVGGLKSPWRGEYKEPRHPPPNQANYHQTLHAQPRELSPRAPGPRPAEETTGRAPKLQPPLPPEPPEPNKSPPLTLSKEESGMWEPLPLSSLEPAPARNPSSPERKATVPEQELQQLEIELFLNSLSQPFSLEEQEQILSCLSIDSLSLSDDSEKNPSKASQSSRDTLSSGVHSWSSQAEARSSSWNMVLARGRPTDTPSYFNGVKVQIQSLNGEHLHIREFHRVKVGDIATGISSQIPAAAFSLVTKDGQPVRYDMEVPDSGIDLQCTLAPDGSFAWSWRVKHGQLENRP
UniProt P52333, sequence (whole entry, looked up): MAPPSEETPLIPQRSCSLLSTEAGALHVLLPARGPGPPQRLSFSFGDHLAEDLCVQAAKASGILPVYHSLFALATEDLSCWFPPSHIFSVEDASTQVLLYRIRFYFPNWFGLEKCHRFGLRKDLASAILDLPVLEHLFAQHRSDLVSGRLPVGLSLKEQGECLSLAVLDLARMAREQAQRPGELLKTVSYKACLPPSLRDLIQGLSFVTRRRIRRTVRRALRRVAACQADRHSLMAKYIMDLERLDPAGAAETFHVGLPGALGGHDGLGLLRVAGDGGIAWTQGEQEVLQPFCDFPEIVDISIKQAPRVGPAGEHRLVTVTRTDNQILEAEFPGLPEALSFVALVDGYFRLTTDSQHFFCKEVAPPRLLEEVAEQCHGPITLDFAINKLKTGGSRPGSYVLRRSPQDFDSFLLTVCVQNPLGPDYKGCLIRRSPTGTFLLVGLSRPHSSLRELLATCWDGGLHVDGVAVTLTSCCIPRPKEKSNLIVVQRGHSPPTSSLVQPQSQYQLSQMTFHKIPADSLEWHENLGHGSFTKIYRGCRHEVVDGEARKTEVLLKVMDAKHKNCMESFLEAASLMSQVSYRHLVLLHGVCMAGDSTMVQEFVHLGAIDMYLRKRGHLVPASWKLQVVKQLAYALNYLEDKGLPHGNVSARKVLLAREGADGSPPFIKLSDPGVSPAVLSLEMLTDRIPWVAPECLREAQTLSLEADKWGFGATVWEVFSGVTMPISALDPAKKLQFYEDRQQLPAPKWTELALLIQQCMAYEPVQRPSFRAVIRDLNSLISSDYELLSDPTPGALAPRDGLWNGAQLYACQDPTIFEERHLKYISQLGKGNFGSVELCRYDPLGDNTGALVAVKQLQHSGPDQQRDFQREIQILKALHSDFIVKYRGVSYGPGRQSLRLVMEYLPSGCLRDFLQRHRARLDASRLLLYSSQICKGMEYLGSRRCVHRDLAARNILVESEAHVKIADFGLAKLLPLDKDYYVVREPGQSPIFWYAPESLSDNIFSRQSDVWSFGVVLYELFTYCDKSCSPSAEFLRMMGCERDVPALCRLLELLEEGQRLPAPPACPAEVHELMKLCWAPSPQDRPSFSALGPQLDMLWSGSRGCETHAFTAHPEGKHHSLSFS
UniProt P06239, sequence (whole entry, looked up): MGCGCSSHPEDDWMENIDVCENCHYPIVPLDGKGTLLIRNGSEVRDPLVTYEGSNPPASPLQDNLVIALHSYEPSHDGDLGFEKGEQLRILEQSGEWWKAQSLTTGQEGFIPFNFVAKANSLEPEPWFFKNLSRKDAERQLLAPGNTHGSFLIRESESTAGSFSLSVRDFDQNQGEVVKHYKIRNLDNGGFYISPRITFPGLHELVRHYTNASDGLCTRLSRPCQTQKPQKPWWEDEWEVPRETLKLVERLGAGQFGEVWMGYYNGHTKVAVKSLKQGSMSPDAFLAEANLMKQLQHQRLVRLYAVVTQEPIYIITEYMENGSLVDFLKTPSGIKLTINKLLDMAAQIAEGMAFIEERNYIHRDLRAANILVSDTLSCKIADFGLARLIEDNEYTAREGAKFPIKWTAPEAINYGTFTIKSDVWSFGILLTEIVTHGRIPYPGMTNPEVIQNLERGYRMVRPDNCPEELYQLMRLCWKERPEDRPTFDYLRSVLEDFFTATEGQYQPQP
UniProt P78368, sequence (whole entry, looked up): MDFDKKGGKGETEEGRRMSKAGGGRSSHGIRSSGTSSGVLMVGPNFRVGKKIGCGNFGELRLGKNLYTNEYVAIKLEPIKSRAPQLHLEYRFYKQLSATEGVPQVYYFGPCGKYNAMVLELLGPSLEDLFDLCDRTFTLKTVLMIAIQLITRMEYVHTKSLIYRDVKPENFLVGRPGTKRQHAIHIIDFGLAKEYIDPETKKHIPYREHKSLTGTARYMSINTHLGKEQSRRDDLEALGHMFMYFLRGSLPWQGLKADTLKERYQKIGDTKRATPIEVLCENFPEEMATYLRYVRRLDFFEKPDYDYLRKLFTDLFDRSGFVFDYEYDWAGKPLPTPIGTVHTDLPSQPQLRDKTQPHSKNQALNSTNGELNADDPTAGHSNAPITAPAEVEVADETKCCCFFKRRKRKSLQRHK
UniProt P30291, sequence (whole entry, looked up): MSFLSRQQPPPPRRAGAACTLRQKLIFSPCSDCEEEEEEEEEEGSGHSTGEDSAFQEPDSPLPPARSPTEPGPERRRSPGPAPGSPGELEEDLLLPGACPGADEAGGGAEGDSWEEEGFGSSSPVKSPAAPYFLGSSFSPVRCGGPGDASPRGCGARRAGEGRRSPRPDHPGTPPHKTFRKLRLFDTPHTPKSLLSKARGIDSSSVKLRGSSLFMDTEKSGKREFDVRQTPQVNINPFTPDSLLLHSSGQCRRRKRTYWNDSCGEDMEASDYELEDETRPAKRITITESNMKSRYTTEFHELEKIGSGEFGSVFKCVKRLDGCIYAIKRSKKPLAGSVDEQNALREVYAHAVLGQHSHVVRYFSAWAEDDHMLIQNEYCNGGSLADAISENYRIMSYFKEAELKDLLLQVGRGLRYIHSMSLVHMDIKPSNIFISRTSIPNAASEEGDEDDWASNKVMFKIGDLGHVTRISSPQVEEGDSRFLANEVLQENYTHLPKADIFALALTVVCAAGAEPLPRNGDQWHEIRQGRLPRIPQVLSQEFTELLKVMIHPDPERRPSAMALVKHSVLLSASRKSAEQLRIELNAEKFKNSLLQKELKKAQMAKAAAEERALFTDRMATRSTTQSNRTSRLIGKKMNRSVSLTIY

Block 1
Species: human
Matrix: microsomes or S9
Concentration: 2 µM
Time: 0.5 h
SMILES	remaining compound [%]
CCc1nc(NCCc2ccncc2)c2c3c(sc2n1)CCCC3	0.0157
COC(=O)c1cc(I)c(N)c(I)c1C	11.9
OC(Cn1c(Cc2ccccc2)nc2ccccc21)Cn1c2ccccc2c2ccccc21 (stereo not drawn)	19.7
CS(=O)(=O)NCC1CCC(C(=O)NCC2CCS(=O)(=O)C2)CC1 (stereo not drawn)	> 99
Cc1nc2c(c(-c3ccc(Cl)cc3)c1CO)CN(C1CCCCC1)C2=O	73.7
Cc1ccc(Nc2nc3ccccc3n3nnnc23)cc1	5.91
CCOC(=O)C(OC(C)(C)C)c1c(C)nc2c(Br)c(C)nn2c1-c1ccc(Cl)cc1 (stereo not drawn)	73.2

Block 2
SMILES: C[C@@H]1[C@H](O)[C@@H](C)/C=C/C=C/C=C/C=C/C=C/C=C/C=C/[C@H](O[C@@H]2O[C@H](C)[C@@H](O)[C@H](N)[C@@H]2O)C[C@@H]2O[C@](O)(C[C@@H](O)C[C@@H](O)[C@H](O)CC[C@@H](O)C[C@@H](O)CC(=O)O[C@H]1C)C[C@H](O)[C@H]2C(=O)O
Cell line: THP-1
assay	setting	inhibition
host cell growth	1 µM	0.65% and -0.38% and -0.53% and -5.39% and -1.44% and -0.54%
host cell growth	0.002 µM	-1.01% and -1.61% and -0.94% and -0.93% and -3.19% and -0.19%
host cell growth	0.2 µM	-0.7% and -2.42% and -0.21% and -0.56% and -0.37% and -4.59%
–	2 µM, cytotoxicity	61%

Block 3
Target: Alpha-2B adrenergic receptor (ADRA2B, Homo sapiens, UniProt P18089)
UniProt P18089, sequence (whole entry, looked up): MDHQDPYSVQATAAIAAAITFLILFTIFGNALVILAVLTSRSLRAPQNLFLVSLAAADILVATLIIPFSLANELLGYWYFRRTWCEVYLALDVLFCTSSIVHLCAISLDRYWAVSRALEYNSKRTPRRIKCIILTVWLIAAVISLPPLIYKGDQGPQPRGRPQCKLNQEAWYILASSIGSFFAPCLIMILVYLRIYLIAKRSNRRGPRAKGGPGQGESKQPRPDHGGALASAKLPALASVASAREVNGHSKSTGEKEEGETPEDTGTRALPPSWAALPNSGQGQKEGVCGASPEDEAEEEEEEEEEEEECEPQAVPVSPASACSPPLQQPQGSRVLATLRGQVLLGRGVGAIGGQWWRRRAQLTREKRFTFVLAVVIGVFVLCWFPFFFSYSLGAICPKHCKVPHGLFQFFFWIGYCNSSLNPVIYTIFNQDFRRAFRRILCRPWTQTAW
Effect on: binding
Method: radioligand binding
Concentration: 10 µM
SMILES	inhibition [%]
Cc1c[nH]c2nccc(Oc3c(F)cc(Nc4cc(Cl)nc(N)n4)cc3F)c12	11.7
Cc1cc(-n2nc(Cc3cc(F)cc(C(F)(F)F)c3)nc2C)ccc1C(N)=O	10.1
CC1=C(C#N)[C@@H](c2ccc3[nH]nc(C)c3c2)C(C#N)=C(c2ccc(Cl)cc2)N1	4.71
CCCOc1ccc([C@H]2[C@H](C(=O)O)[C@@H](c3ccc4c(c3)OCO4)CN2CC(=O)Nc2c(CC)cccc2CC)cc1	10.4
O=C([C@H]1C[C@H](O)CN1c1ccc(Cl)cc1)N1CC2COCC(C1)N2Cc1ccc(Cl)cc1	-34.3
COc1nc2ccc([C@@](O)(c3ccccc3)C3CCN(C(C)=O)CC3)cc2c(Cl)c1Cc1ccc(-n2cccn2)cc1	54.6
Cc1nc(Cc2cccc(C(F)(F)F)c2)sc1-c1ccc(C(N)=O)nc1	5.89

Block 4
Compound: COc1ccc(COc2ccc(Cc3cnc(N)nc3N)cc2OC)cc1
Effect on: enzyme activity
Mode: inhibitor
Concentration: 0.5 µM
Baseline: control
target	remaining activity [%]
Angiopoietin-1 receptor (TEK, Homo sapiens, UniProt Q02763)	101
Serine/threonine-protein kinase Nek6 (NEK6, Homo sapiens, UniProt Q9HC98)	99.4
Mitogen-activated protein kinase kinase kinase 5 (MAP3K5, Homo sapiens, UniProt Q99683)	89
Rhodopsin kinase GRK7 (GRK7, Homo sapiens, UniProt Q8WTQ7)	104
Tyrosine-protein kinase Lck (LCK, Homo sapiens, UniProt P06239)	96.3
Macrophage-stimulating protein receptor (MST1R, Homo sapiens, UniProt Q04912)	104
Tyrosine-protein kinase Mer (MERTK, Homo sapiens, UniProt Q12866)	90.3
Serine/threonine-protein kinase A-Raf (ARAF, Homo sapiens, UniProt P10398)	96.6
Dual specificity mitogen-activated protein kinase kinase 2 (MAP2K2, Homo sapiens, UniProt P36507)	101
Serine/threonine-protein kinase ULK2 (ULK2, Homo sapiens, UniProt Q8IYT8)	105
Activin receptor type-1B (ACVR1B, Homo sapiens, UniProt P36896)	97.8
Ribosomal protein S6 kinase alpha-2 (RPS6KA2, Homo sapiens, UniProt Q15349)	105
Mitogen-activated protein kinase kinase kinase 14 (MAP3K14, Homo sapiens, UniProt Q99558)	81.8
Wee1-like protein kinase (WEE1, Homo sapiens, UniProt P30291)	90.3
Fibroblast growth factor receptor 1 (FGFR1, Homo sapiens, UniProt P11362)	108
Casein kinase I isoform gamma-2 (CSNK1G2, Homo sapiens, UniProt P78368)	101
Serine/threonine-protein kinase TAO2 (TAOK2, Homo sapiens, UniProt Q9UL54)	94.7
Ephrin type-A receptor 3 (EPHA3, Homo sapiens, UniProt P29320)	109
Tyrosine-protein kinase JAK3 (JAK3, Homo sapiens, UniProt P52333)	95.9
MAP kinase-activated protein kinase 2 (MAPKAPK2, Homo sapiens, UniProt P49137)	103
Serine/threonine-protein kinase TBK1 (TBK1, Homo sapiens, UniProt Q9UHD2)	103

Block 5
SMILES: CC(=O)N[C@@H](Cc1c[nH]c2ccccc12)C(=O)N[C@@H](CCC(=O)C=[N+]=[N-])C(=O)OC(C)C
test system	setting	tumour volume
mice, MC-38 tumour rechallenge	0.26 mg/kg, day 57 after injection	0 mm3
CES1-/- mice, OVA-expressing MC-38 tumour	dose not given, day 19 after injection	122 mm3 and 43 mm3 and 109 mm3 and 0 mm3 and 11 mm3
mice, MC-38 tumour rechallenge	0.26 mg/kg, day 21 after injection	0 mm3
mice, MC-38 tumour rechallenge	1 mg/kg, day 11 after injection	8.79 mm3 and 0 mm3
mice, MC-38 tumour rechallenge	0.26 mg/kg, day 64 after injection	0 mm3

Single results of other studies
SMILES	target	assay	test system	setting	endpoint	result
C=C(F)C(=O)N1CCN(c2nc(OC[C@@H]3CCCN3C)nc3c2CCN(c2cccc4cccc(Cl)c24)C3)C[C@@H]1CC#N	GTPase HRas (HRAS, Homo sapiens, UniProt P01112)	binding, competitor, NanoBRET	HEK293	9.14 nM	normalized BRET	93.2% and 91.4%
